# Measurements from different studies.
# Values joined by “and” are separate records of one study, mostly repeats; a detail may differ. ± gives the spread as reported.
# Oprd1: Delta-type opioid receptor (Oprd1, Rattus norvegicus, UniProt P33533)
# UniProt Q8BLF1, sequence (whole entry, looked up): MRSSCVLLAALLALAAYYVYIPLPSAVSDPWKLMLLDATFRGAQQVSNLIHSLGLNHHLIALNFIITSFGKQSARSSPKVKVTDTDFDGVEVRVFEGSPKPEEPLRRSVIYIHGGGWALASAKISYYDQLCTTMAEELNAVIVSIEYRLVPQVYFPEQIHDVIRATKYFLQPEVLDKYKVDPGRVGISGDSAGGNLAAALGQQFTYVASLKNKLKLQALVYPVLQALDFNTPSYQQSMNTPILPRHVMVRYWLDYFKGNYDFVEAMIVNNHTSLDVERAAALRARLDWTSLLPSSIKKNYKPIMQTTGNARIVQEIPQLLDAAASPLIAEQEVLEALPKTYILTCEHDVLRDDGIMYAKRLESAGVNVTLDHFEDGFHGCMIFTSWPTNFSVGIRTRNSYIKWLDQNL
# UniProt P33533, sequence (whole entry, looked up): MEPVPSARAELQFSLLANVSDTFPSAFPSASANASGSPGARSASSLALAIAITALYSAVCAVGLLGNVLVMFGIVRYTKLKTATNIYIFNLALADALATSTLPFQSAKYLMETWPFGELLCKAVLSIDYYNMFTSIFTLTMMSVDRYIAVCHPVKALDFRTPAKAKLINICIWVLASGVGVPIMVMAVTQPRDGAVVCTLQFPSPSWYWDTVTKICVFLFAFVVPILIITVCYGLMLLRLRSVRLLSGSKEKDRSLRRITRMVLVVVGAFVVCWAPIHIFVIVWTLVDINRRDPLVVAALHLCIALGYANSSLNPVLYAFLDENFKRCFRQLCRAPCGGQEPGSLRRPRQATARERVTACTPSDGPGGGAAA
# UniProt D0VWV4, sequence (whole entry, looked up): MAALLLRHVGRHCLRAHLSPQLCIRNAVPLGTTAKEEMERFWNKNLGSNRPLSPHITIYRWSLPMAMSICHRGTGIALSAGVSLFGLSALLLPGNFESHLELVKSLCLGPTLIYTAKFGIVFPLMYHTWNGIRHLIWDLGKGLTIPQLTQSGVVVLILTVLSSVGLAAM
# UniProt Q007T0, sequence (whole entry, looked up): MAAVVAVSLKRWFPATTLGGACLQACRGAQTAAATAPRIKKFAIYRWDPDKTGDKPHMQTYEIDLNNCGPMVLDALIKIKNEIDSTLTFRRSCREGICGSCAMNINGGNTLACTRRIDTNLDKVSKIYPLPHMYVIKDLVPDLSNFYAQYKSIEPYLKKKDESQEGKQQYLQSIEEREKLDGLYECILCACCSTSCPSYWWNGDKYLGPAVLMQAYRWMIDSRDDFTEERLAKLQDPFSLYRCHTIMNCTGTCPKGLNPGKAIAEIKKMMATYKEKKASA
# UniProt A5GZW8, sequence (whole entry, looked up): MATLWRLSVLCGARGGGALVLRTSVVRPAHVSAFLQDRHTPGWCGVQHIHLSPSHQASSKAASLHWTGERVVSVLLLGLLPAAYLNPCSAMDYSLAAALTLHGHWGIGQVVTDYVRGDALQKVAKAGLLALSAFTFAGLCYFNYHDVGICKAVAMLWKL
# UniProt Q9UH17, sequence (whole entry, looked up): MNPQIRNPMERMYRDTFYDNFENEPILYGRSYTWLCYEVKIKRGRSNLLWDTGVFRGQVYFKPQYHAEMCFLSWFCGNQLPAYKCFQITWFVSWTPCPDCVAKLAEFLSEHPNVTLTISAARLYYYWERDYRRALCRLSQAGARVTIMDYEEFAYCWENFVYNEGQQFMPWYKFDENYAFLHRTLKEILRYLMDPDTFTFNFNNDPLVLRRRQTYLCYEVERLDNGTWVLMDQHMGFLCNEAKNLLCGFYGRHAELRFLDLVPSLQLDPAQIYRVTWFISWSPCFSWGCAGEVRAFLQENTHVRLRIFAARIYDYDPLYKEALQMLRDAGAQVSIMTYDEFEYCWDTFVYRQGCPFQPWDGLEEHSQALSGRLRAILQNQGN
# UniProt Q9ULC6, sequence (whole entry, looked up): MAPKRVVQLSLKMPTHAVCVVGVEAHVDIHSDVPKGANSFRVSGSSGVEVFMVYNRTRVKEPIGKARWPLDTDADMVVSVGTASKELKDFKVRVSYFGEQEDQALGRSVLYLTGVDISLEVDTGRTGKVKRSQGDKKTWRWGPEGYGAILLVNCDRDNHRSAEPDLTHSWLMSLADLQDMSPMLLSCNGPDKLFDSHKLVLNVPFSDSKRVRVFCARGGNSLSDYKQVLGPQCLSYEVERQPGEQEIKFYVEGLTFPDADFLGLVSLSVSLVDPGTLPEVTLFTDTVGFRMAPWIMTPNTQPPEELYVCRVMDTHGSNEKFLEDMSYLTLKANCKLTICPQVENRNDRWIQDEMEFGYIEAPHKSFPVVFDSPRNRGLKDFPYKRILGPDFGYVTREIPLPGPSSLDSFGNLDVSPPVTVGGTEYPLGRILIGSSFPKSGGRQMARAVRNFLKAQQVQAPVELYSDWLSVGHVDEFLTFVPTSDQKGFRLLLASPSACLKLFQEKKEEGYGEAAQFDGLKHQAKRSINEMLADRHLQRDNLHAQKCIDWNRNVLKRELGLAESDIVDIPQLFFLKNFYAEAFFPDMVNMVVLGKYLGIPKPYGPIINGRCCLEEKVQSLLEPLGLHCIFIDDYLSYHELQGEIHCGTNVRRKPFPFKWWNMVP
# UniProt P22303, sequence (whole entry, looked up): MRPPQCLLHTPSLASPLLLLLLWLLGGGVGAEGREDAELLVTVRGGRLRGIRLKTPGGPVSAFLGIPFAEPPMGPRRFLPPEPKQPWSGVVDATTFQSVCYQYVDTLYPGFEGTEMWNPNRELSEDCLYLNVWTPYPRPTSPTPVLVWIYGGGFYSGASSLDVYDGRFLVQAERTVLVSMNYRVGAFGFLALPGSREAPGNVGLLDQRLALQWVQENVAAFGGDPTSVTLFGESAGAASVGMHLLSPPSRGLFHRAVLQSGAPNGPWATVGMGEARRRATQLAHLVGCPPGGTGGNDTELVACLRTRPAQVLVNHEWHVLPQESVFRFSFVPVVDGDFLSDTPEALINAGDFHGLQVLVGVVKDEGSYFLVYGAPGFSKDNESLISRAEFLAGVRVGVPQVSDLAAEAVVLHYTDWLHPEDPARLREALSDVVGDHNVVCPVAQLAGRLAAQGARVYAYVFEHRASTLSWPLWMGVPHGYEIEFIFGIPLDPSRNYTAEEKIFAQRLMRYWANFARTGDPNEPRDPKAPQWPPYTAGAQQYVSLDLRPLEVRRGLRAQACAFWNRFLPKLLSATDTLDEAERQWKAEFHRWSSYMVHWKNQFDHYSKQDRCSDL
# UniProt P11362, sequence (whole entry, looked up): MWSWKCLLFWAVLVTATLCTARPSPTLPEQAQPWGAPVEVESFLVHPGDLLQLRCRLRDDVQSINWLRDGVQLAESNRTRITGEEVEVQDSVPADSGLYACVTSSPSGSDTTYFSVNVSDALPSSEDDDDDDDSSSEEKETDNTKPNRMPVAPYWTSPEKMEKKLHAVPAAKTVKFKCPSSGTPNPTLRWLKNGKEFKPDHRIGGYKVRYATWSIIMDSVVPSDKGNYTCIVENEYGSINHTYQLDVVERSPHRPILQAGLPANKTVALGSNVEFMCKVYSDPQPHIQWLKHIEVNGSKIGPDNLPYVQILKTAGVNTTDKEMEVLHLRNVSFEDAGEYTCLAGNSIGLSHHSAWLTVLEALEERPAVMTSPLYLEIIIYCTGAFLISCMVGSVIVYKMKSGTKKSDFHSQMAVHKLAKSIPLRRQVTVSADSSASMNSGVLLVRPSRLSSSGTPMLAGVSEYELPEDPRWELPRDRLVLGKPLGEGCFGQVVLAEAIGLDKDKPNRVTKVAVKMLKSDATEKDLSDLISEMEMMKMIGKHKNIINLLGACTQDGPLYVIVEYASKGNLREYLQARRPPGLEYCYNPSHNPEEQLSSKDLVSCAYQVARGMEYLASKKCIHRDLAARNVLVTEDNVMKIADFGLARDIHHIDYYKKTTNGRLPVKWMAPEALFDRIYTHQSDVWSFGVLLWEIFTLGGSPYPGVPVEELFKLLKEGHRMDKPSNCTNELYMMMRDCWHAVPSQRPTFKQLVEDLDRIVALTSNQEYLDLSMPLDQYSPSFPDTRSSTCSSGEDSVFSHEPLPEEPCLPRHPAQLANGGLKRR
# UniProt Q15831, sequence (whole entry, looked up): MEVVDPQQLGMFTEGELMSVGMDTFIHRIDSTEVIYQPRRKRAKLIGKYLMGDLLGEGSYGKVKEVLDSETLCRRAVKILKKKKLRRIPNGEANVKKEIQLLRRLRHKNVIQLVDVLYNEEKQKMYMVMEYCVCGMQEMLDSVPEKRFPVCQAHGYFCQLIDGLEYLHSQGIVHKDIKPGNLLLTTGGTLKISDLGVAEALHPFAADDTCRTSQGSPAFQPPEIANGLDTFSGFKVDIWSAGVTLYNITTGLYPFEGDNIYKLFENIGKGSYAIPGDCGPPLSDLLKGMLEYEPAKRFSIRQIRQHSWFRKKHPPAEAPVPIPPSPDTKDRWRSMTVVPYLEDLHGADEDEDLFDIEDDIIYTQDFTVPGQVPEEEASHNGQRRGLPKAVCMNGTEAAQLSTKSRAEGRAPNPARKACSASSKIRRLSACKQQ
# UniProt Q9UNU6, sequence (whole entry, looked up): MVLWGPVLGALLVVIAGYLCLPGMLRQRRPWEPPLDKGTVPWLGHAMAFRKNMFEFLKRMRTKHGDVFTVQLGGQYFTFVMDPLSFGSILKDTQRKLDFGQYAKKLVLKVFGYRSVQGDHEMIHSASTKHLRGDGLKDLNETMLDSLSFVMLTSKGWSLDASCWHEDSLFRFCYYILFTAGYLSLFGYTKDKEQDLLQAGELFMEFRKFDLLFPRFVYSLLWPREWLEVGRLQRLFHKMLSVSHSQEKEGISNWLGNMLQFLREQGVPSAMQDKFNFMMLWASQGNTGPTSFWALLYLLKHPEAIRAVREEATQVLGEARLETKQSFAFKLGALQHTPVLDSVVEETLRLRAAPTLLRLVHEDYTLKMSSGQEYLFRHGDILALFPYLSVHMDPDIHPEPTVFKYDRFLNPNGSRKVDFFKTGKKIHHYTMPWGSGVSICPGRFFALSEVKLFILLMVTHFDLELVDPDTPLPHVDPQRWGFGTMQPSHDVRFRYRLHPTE
SMILES,target or system,test,system,conditions,how to read,measurement,value
CC[C@@H](C)[C@@H]1CN([C@H](Cc2ccc3ccccc3c2)CN2CCC[C@H]2CN2CCNC[C@@H]2Cc2ccc3ccccc3c2)CCN1CCCC1CCCC1,Oprd1,radioligand binding,rat brain membranes,"500 nM, pH 7.5, 25 °C, with: 2 nM [3H]DPDPE",,remaining binding,85.6%
O=C(O)c1ccc(-c2nc(-c3ccccc3Cl)c3sccn23)cc1,"ACHE (Homo sapiens, UniProt P22303)",,,10 µM,,remaining activity,98.2% and 119%
Cc1ccc(NS(=O)(=O)c2c(C)[nH]c(C)c2C(=O)N2CCCC2)cc1,"DRD3 (Homo sapiens, UniProt P35462)","β-arrestin recruitment, agonist, PathHunter",,,relative to: dopamine,Imax,97 ± 12%
C[C@]12C(c3cccnc3)=C[C@H]3[C@@H](CCC4=C[C@H](O)CC[C@@]43C)[C@@H]1CC[C@@H]2O,"7-alpha-hydroxycholest-4-en-3-one 12-alpha-hydroxylase (Homo sapiens, UniProt Q9UNU6)",inhibitor,,"80 µM, with: 7α-hydroxycholest-4-en-3-one 0.5 µM",,remaining activity,66.1 ± 1.1%
CN1CCC[C@@H]1C(=O)N[C@@H](Cc1ccc(-c2ccccc2)cc1)B(O)O,"20S proteasome (Plasmodium falciparum, UniProt A0A5K1K7U1+Q8IJT1)",,,,relative to: Tris over HEPES buffer,IC50 ratio,8
OB(O)c1cnn(-c2cccc(Cl)c2)c1,"Trypsin (Sus scrofa, UniProt P00761)",,,,relative to: Ki trypsin over Ki AmpC,selectivity ratio,3450
N[C@H](Cc1ccccc1)P(=O)(O)O,"PAL1 (Petroselinum crispum, UniProt P24481, Y110F)","binding, ITC",,,,-TΔS,0.1 kcal/mol
CCCCC[C@@H]1OC(=O)[C@@H](C)N(C)C(=O)[C@H](CCCCC)OC(=O)[C@@H](C)N(C)C(=O)[C@H](CCCCC)OC(=O)[C@@H](C)N(C)C(=O)[C@H](CCCCC)OC(=O)[C@@H](C)N(C)C1=O,"ryanodine receptor 2 (Sus scrofa, UniProt A0A5G2R1W3)","single-channel gating, planar lipid bilayer",,"3 µM, pCa 7, porcine",,open dwell time constant T2,17.6 ± 8.4 ms
N[C@H](C(=O)N1CCCC1)C1CCN(c2nccc3c(-c4ncc(Cl)cc4Cl)cccc23)CC1,"PADI1 (Homo sapiens, UniProt Q9ULC6)",enzyme activity,,"0.01573 µM, with: Ca2+ 0.25 mM",,kcat,0.365 s⁻¹ and 0.378 s⁻¹
CON(C(=O)c1cn(C)nc1C(F)F)C(C)Cc1c(Cl)cc(Cl)cc1Cl (stereo not shown),"SDHD/SDHC/SDHB (Sus scrofa, UniProt A5GZW8+D0VWV4+Q007T0)","enzyme activity, inhibitor, DCIP reduction",pig,"0.3 µM, with: DCIP 40 µM",,reaction velocity,0.00731 µM/s and 0.00697 µM/s and 0.00634 µM/s
OC[C@H]1CNCCN1C[C@@H]1CCCN1C[C@@H](Cc1ccc2ccccc2c1)N1CCN(CCc2ccc(Cl)c(Cl)c2)[C@H](Cc2ccc(O)cc2)C1,Oprd1,radioligand binding,rat brain membranes,"500 nM, pH 7.5, 25 °C, with: 2 nM [3H]DPDPE",,remaining binding,92.2%
O=C1NC2(CC2)COc2ncc(F)cc2[C@H]2COCCN2c2ccn3ncc1c3n2,,,"Sprague-Dawley rat, male, serum","oral, 20 mg/kg/day, 4 weeks daily, end of recovery period",,albumin,37.2 ± 1.7 g/L
Cc1cc(Nc2ccc(Cl)cc2)n2nc(C(F)(F)F)nc2n1,"PFF0160c (Plasmodium falciparum, UniProt Q08210, E182D)","enzyme activity, DCIP colorimetric",,,relative to: E182D mutant over wild type,IC50 ratio,164
CS(C)(=O)=Nc1ccc(-c2ccc(-c3nc4cc(O[C@@H]5CO[C@H]6[C@@H]5OC[C@H]6O)[nH]c4cc3F)cc2)cc1,"MAP2K6 (Homo sapiens, UniProt P52564)","enzyme activity, inhibitor",,10 µM,,inhibition,5%
CC[C@H](C)[C@H](NC(C)=O)C(=O)N[C@@H](CCC(=O)O)C(=O)N1CCC[C@H]1C(=O)NC(CS(=O)(=O)O)P(=O)(Oc1ccccc1)Oc1ccccc1 (stereo partly shown),"Granzyme B (GZMB, Homo sapiens, UniProt P10144)","enzyme activity, inhibitor, FRET",,,,kinact,0.000783 s⁻¹
CN(C)[C@H]1C[C@@]23CC[C@@]4(O2)C(=CC[C@]2(C)[C@@H](c5ccc6ccncc6c5)CC[C@H]24)C=C3[C@@H](O)[C@@H]1O,"MLKL (Homo sapiens, UniProt Q8NB16)","ATP probe labelling, inhibitor, KiNativ profiling",,1 µM,,inhibition,-4.9%
O=C1NC(=O)c2c1c1cc(F)c[n+]3c1c1c2c2cc(O)ccc2[n]1[Ru-4]312([N]=C=S)[S+]3CC[S+]1CC[S+]2CC3 (stereo not shown),"FGFR1 (Homo sapiens, UniProt P11362)",enzyme activity,,"100 nM, human enzyme, with: 10 µM ATP",relative to: untreated,remaining activity,74%
CCOC(=O)[C@@H]1Cc2c(cc([N+](=O)[O-])cc2[N+](=O)[O-])[C@H](O)[C@]12C(=O)Nc1ccc(Br)cc12,"STK11 (Homo sapiens, UniProt Q15831)","binding, competition with immobilised ligand",,0.1 µM,,remaining binding,54%
C[C@H](NCc1ccc(-c2ccc(C(F)(F)F)cc2)cc1)C(N)=O,"ERBB4 (Homo sapiens, UniProt Q15303)","cell-free assay, competition with immobilised ligand",,1 µM,,inhibition,6%
CC(C)C[C@@H](N)C(=O)NCC(=O)N[C@H](C)C(=O)N[C@H](CO)C(=O)N[C@H](Cc1c[nH]c2ccccc12)C(=O)N[C@H](Cc1c[nH]cn1)C(=O)N[C@H](CCCNC(=N)N)C(=O)N1CCC[C@@H]1C(=O)N[C@H](CC(=O)O)C(=O)N[C@H](CCCCN)C(=O)N[C@H](CCCCN)C(=O)N[C@H](CCCNC(=N)N)C(=O)NCCCCCC(=O)N[C@@H](CCCCN)C(=O)N[C@@H](CCCNC(=N)N)C(=O)N[C@@H](CCCCN)C(=O)N[C@@H](CS)C(=O)N[C@H](C(=O)N[C@@H](CCCNC(=N)N)C(=O)N1CCC[C@H]1C(=O)N[C@@H](CC(N)=O)C(=O)N[C@@H](CC(N)=O)C(=O)N[C@@H](CC(N)=O)C(=O)N[C@H](C(N)=O)[C@@H](C)O)[C@@H](C)O,"CCR5 (Homo sapiens, UniProt P51681)",,CHO expressing CCR5,"50 µM, 40 min, 4 °C, with: mAb 45523 4 µg/mL",,inhibition of binding,10.4%
CC(=O)N[C@@H](CCC(N)=O)C(=O)N[C@@H](CC1CCCCC1)C(=O)N[C@@H](CNC(=O)CCl)C(=O)N[C@@H](CC(C)C)C(=O)N[C@@H](Cc1ccccc1)C(=O)O,"Beta sliding clamp (Escherichia coli, UniProt P0A988)","binding, isothermal titration calorimetry",,"pH 7.4, 37 °C",,-TΔS,8.1 kcal/mol
COc1ccccc1-c1n[nH]c2nc(N[C@H]3CC[C@H](NS(=O)(=O)CC(C)C)CC3)ncc12,"mitogen-activated protein kinase 9 (Leishmania donovani, UniProt A0A3Q8IB74)","competitor, bead pull-down competition",Leishmania donovani extract,10 µM,relative to: vehicle,relative abundance,0.21
C=CC(=O)Nc1cc(-c2ccc(C(=O)N3CCCC(O)(CC)C3)cc2)ccc1F (stereo not shown),"DNA dC->dU-editing enzyme APOBEC-3B, C-terminal domain (Homo sapiens, UniProt Q9UH17)","covalent adduct, intact protein MS, measured: mass +397 Da adduct of 25735 Da",,"125 µM, 1 h, 5-fold molar excess",,adducted protein,11% and 14%
C[C@@H](O)[C@@H]1CN([C@H](Cc2ccc3ccccc3c2)CN2CCC[C@H]2CN2CCNC[C@@H]2Cc2ccc3ccccc3c2)CCN1CCCC1CCCC1,Oprd1,radioligand binding,rat brain membranes,"500 nM, pH 7.5, 25 °C, with: 2 nM [3H]DPDPE",,remaining binding,84.8%
CC(C)C[C@@H]1NC(=O)[C@H](Cc2ccc(O)cc2)NC(=O)[C@H](CC(N)=O)NC(=O)[C@H](CO)NC(=O)[C@@H](NC(=O)[C@@H]2CCCN2C(=O)[C@H](CC(N)=O)NC(=O)[C@H](Cc2ccc(O)cc2)NC(=O)[C@H](CCCCN)NC(=O)[C@H](CO)NC(=O)[C@H](C)NC(=O)[C@@H](N)CC(N)=O)CSC1=O,"Accessory gene regulator protein C (Staphylococcus epidermidis, UniProt Q8VSX2)",,,concentration not given,,activity,inactive
CC(C)[C@H]1NC(=O)C[C@H]2/C=C/CCSSC[C@@H](NC1=O)C(=O)N[C@H](Cc1cccc3ccccc13)C(=O)NCC(=O)O2,"ROCK1 (Homo sapiens, UniProt Q13464)","enzyme activity, inhibitor",,10 µM,,inhibition,-5%
CC(C)CC(O)(CC(C)C)c1cn(C(=O)N2CCCC2)nn1,"Neutral cholesterol ester hydrolase 1 (Mus musculus, UniProt Q8BLF1)","probe labelling, inhibitor, measured: Aadacl1","mouse, brain","i.p., 0.8 mg/kg, 4 h, single peptide","relative to: treated over vehicle mice, lower = stronger inhibition",activity ratio-of-ratios,1.1 and 1.24 and 1.57 and 0.99 and 1.07 and 1.09
CCc1nnc(-c2c(OC)cc(-c3cnc4cc(-c5cnn(C)c5)ccn34)cc2OC)o1,"HTR1A (Homo sapiens, UniProt P08908)","agonist radioligand, radioligand binding",,"10 µM, SafetyScreen44 5-HT1A mean",lower = stronger displacement,remaining binding,99.1%

# Excerpt of the above:
SMILES,target or system,test,system,conditions,how to read,measurement,value
O=C(O)c1ccc(-c2nc(-c3ccccc3Cl)c3sccn23)cc1,"ACHE (Homo sapiens, UniProt P22303)",,,10 µM,,remaining activity,98.2% and 119%
CC(C)[C@H]1NC(=O)C[C@H]2/C=C/CCSSC[C@@H](NC1=O)C(=O)N[C@H](Cc1cccc3ccccc13)C(=O)NCC(=O)O2,"ROCK1 (Homo sapiens, UniProt Q13464)","enzyme activity, inhibitor",,10 µM,,inhibition,-5%
C[C@@H](O)[C@@H]1CN([C@H](Cc2ccc3ccccc3c2)CN2CCC[C@H]2CN2CCNC[C@@H]2Cc2ccc3ccccc3c2)CCN1CCCC1CCCC1,Oprd1,radioligand binding,rat brain membranes,"500 nM, pH 7.5, 25 °C, with: 2 nM [3H]DPDPE",,remaining binding,84.8%
Cc1ccc(NS(=O)(=O)c2c(C)[nH]c(C)c2C(=O)N2CCCC2)cc1,"DRD3 (Homo sapiens, UniProt P35462)","β-arrestin recruitment, agonist, PathHunter",,,relative to: dopamine,Imax,97 ± 12%
